Assay results gathered from unrelated publications.
Each numbered part is a random draw from the data of one study; scales do not carry over between parts. Several values in a cell are separate wells, animals, samples, runs or records.
Sequence of UniProt P51956 (whole entry, looked up): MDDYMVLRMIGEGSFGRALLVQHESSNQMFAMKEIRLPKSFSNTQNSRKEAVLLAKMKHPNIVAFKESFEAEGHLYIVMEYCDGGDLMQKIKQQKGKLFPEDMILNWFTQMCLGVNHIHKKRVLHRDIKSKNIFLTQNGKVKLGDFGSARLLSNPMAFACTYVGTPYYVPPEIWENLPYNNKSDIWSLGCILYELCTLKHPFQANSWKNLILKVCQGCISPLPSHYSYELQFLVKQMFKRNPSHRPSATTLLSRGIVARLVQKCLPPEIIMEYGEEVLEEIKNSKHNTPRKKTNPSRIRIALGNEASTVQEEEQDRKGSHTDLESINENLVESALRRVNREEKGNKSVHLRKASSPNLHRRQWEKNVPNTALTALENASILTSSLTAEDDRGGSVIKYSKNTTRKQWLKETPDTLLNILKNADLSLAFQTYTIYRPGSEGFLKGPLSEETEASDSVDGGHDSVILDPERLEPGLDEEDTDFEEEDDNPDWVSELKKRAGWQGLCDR
Sequence of UniProt Q6P2M8 (whole entry, looked up): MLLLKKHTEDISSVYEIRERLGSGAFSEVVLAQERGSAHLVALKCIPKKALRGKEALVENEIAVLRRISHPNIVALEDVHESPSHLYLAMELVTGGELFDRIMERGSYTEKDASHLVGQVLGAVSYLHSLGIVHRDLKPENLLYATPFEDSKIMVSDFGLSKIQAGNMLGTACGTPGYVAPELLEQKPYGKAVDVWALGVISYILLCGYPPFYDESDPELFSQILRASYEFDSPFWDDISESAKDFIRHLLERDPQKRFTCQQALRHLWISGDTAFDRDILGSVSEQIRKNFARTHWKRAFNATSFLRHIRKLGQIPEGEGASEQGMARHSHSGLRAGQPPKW
Sequence of UniProt Q8N4C8 (whole entry, looked up): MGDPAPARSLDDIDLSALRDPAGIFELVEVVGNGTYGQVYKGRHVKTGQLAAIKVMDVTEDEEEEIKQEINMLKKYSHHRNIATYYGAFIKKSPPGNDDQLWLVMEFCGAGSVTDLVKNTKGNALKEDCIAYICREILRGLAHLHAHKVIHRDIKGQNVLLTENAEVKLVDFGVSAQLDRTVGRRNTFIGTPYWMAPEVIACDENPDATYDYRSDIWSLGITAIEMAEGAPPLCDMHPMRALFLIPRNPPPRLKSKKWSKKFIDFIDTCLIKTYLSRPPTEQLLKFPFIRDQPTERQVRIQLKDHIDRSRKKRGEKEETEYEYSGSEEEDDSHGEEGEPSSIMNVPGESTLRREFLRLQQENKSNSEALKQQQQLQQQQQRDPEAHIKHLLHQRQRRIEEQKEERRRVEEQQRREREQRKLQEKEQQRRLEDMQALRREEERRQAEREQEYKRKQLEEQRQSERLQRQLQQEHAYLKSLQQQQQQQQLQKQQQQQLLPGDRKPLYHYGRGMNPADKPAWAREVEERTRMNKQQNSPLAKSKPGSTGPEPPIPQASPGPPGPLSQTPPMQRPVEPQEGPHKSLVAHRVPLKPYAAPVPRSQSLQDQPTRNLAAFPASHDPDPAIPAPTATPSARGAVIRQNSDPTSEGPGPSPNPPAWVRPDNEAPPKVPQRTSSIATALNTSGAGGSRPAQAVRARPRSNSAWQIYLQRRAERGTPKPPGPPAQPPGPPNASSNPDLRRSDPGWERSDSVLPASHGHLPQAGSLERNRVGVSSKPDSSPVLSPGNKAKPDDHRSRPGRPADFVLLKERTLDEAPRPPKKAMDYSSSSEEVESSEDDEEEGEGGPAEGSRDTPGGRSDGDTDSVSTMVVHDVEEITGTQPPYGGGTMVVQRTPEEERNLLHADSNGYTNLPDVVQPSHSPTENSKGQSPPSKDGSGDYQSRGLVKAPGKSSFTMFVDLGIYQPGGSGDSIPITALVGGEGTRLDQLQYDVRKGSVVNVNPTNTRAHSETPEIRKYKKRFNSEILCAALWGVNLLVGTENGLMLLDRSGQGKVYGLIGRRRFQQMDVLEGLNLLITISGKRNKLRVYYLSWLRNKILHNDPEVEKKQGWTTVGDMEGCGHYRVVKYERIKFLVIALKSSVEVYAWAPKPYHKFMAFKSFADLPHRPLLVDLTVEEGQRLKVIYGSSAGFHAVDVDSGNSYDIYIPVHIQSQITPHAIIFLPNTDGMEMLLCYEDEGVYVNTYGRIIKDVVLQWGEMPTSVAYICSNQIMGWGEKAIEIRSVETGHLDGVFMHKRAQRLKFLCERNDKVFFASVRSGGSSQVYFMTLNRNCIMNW
Sequence of UniProt Q16539 (whole entry, looked up): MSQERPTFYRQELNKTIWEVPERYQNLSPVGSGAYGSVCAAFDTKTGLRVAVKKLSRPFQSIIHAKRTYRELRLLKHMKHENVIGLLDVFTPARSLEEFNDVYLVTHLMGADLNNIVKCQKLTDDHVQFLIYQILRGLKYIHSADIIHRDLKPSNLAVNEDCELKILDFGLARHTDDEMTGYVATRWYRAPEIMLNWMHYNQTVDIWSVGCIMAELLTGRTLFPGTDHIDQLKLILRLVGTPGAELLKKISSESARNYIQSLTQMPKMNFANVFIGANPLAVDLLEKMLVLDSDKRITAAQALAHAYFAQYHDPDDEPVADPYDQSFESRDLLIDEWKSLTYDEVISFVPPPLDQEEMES
Sequence of UniProt Q7KZI7 (whole entry, looked up): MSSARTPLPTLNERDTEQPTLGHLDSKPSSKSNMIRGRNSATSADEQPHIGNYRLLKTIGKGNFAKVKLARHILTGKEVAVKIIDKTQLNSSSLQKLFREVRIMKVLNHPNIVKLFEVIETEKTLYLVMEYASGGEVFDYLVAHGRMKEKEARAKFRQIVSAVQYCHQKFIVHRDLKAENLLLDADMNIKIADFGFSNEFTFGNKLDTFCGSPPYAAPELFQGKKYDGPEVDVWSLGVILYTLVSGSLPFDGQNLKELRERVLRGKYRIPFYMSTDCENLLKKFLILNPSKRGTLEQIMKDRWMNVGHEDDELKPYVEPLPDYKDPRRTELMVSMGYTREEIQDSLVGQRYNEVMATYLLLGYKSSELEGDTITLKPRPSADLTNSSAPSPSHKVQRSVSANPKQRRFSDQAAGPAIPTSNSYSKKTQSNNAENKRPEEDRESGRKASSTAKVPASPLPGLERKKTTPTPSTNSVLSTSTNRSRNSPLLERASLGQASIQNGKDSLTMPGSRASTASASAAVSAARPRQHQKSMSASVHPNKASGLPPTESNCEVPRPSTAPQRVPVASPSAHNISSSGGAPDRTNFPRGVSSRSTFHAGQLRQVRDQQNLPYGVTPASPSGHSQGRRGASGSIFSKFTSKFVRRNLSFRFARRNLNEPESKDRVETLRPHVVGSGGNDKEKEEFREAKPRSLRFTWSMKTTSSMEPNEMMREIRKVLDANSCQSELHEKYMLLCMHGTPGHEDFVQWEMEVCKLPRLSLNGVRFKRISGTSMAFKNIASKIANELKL
Sequence of UniProt Q8N568 (whole entry, looked up): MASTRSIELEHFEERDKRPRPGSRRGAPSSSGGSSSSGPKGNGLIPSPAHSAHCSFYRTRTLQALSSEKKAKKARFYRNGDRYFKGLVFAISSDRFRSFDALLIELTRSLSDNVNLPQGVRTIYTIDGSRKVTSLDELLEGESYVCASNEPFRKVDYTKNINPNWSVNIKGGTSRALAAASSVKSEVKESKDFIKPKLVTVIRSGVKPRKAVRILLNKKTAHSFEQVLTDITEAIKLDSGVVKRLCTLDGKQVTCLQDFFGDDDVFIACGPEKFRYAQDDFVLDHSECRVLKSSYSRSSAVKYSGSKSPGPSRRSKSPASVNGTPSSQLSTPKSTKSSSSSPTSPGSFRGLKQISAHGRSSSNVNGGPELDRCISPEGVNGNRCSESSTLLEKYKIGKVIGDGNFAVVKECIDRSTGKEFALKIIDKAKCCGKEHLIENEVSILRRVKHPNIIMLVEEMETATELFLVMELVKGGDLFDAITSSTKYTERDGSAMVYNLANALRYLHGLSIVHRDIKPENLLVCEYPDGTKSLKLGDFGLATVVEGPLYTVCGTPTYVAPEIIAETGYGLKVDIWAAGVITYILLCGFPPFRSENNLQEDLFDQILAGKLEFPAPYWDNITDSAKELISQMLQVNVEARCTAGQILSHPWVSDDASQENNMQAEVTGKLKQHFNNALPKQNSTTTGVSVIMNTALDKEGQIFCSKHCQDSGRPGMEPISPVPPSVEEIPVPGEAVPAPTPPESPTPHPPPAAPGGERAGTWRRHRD
Sequence of UniProt P31751 (whole entry, looked up): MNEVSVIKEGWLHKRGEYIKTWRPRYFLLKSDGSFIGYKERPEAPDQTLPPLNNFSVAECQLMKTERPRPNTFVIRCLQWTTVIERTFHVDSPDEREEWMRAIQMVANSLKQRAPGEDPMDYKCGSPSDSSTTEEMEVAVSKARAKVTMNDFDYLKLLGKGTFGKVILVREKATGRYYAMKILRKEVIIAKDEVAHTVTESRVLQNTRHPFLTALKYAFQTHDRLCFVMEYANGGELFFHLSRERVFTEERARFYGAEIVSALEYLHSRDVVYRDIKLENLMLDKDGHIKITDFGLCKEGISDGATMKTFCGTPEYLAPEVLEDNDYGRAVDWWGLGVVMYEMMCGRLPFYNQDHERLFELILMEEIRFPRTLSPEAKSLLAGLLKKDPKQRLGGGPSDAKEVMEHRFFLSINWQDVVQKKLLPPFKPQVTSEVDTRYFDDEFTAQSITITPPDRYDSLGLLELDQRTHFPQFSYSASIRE
Sequence of UniProt P50750 (whole entry, looked up): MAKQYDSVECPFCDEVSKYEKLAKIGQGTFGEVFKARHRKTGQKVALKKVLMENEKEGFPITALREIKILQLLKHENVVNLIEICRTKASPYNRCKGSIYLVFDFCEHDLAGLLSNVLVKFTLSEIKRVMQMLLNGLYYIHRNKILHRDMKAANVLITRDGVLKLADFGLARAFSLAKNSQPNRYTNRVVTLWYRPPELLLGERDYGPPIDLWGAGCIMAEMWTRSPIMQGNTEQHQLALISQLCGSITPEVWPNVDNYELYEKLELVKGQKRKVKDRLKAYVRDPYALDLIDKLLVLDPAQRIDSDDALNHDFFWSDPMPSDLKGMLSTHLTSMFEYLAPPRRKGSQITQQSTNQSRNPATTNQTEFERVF

Series 1
Cell line: mouse MPNST tumor cells
Technique: high-content immunofluorescence imaging
Measured: nuclear SOX9
Tested at: 10 µM
Time: 12 h
Setting: mean of 2 replicates
Relative to: DMSO control
Reading: higher = more nuclear SOX9
Structure (SMILES) | nuclear SOX9 intensity
Cc1ccc(-c2cnccc2-c2cnc(Nc3ccc(O)cc3)s2)c(Cl)c1 | 219 % of DMSO
Clc1ccc(CCCOCCCN2CCCCC2)cc1 | 115 % of DMSO
CC(C)(C)c1nc2c3cc[nH]c(=O)c3c3cc(F)ccc3c2[nH]1 | 127 % of DMSO
CCN(CC)CCCC(C)Nc1ccnc2cc(Cl)ccc12 (stereo not shown) | 121 % of DMSO and 116 % of DMSO and 93.2 % of DMSO
C=CCOC(Cn1ccnc1)c1ccc(Cl)cc1Cl (stereo not shown) | 105 % of DMSO
N#Cc1ccc(NCCNCC(=O)N2CCC[C@H]2C#N)nc1 | 88 % of DMSO
Cc1c(-c2ccc(-c3ccccc3F)cc2)nc2ccc(F)cc2c1C(=O)O | 122 % of DMSO
Cc1cc(C)c(C2=NOC3C4CCC(C4)C23)c(C)c1 (stereo not shown) | 127 % of DMSO
CCOC(=O)c1ncc2[nH]c3cccc(OC(C)C)c3c2c1C | 107 % of DMSO
C=CC[N@@+]12CC[C@@]34c5ccccc5N5/C=C6/[C@H]7C[C@H]8[C@@]9(CC[N@@+]8(CC=C)C/C7=C/CO)c7ccccc7N(/C=C(/[C@@H](C[C@@H]31)/C(=C\CO)C2)[C@H]54)[C@@H]69 | 94.3 % of DMSO
CN(C)CCCCSC(=N)N | 88.6 % of DMSO

Series 2
SMILES: COc1cc(C(=O)N2CCC(N3CCN(C)CC3)CC2)ccc1Nc1ncc2c(n1)N(C)c1ccccc1C(=O)N2C
tested on | assay | test system | setting | inhibition
ULK3 (mouse) | probe labelling, KiNativ, measured: EVVAIkCVAK peptide, LYS1 site | brain tissue lysate (mouse) | 0.1 µM, with: ATP acyl-phosphate probe | 21.9%
FYN (mouse) | probe labelling, KiNativ ATP probe | mouse brain lysate | 0.1 µM, LYS1 labelled site | -4.6% and 2.3%
BTK human | KiNativ profiling | human PBMC | 1 µM, activation loop site, with: ATP acyl phosphate probe | -18.4%
mouse PCTAIRE1/2/3 | probe labelling, KiNativ ADP probe | mouse brain lysate | 0.1 µM, LYS2 site DLkPQNLLINER | -11.1%
ACK (mouse) | probe labelling, KiNativ, measured: Lys1 site peptide | brain tissue lysate (mouse) | 1 µM, with: ATP acyl-phosphate probe | 18.1%
human PBMC | probe labeling, inhibitor, KiNativ profiling, measured: VKELPTLkDMDFLNK | cell lysate | concentration not given, ATP site, with: ATP acyl-phosphate probe 0.1 µM | 17%
human PBMC | probe labeling, inhibitor, KiNativ profiling, measured: EVAVkIIDK | cell lysate | 1 µM, LYS1 site, with: ADP acyl-phosphate probe | -0.1%
QSK (mouse) | probe labelling, KiNativ, measured: LYS2 site peptide | brain tissue lysate (mouse) | 1 µM, with: ADP acyl-phosphate probe | 4.5%
CaMKK1 (mouse) | probe labelling, KiNativ, measured: Lys1 site peptide | brain tissue lysate (mouse) | 0.1 µM, with: ATP acyl-phosphate probe | 7.9%
mouse ILK | probe labelling, KiNativ ATP probe | mouse brain lysate | 0.1 µM, kinase domain ISMADVkFSFQCPGR | 5.4%

Series 3
SMILES: Nc1nc(Nc2ccc(S(N)(=O)=O)cc2)nn1C(=S)Nc1c(F)cccc1F
Observed: enzyme activity
Mode: inhibitor
Tested at: 0.5 µM
Relative to: control
target | remaining activity [%]
PNCK (Homo sapiens, UniProt Q6P2M8) | 89.1
GRK4 (Homo sapiens, UniProt P32298) | 92.2
MINK1 (Homo sapiens, UniProt Q8N4C8) | 3.06
DDR2 (Homo sapiens, UniProt Q16832) | 130
PRKG2 (Homo sapiens, UniProt Q13237) | 61.5
AKT2 (Homo sapiens, UniProt P31751) | 103
CDC42BPB (Homo sapiens, UniProt Q9Y5S2) | 48.1
MARK4 (Homo sapiens, UniProt Q96L34) | 2.33
NEK3 (Homo sapiens, UniProt P51956) | 19.6
MARK2 (Homo sapiens, UniProt Q7KZI7) | 3.43
Cyclin-dependent kinase 9, with cyclin K (CDK9, Homo sapiens, UniProt P50750) | 7.46
DCLK2 (Homo sapiens, UniProt Q8N568) | 40.4
RPS6KA4 (Homo sapiens, UniProt O75676) | 42.8
MAPK14 (Homo sapiens, UniProt Q16539) | 95.4

Mixed results
Compound | tested on | assay | test system | setting | quantity | result
C[C@@]1(Cc2ccc(C#N)cc2)C(=O)N(c2cc(Cl)cc(Cl)c2)c2ncc(C(=O)NC3(c4nc(C5CCC5)no4)CC3)n21 | HTR3A (Homo sapiens, UniProt P46098) | binding, radioligand binding | – | 10 µM | inhibition | 17.9%
CC(C)n1cnc(-c2ccc(F)cc2)c1-c1ncc(C(=O)Nc2ccc(N3CCN(C)CC3)cc2)[nH]1 | – | – | IPF patients | 30 mg once daily, adverse event | Haemoptysis incidence | 0%

Repeated from above (series 3):
target | remaining activity [%]
DDR2 (Homo sapiens, UniProt Q16832) | 130
AKT2 (Homo sapiens, UniProt P31751) | 103
Cyclin-dependent kinase 9, with cyclin K (CDK9, Homo sapiens, UniProt P50750) | 7.46
